# Published values from different studies.
# Every numbered part comes from another study and shows a few of its results, in no order.
# Sequence of UniProt Q13705 (whole entry, looked up): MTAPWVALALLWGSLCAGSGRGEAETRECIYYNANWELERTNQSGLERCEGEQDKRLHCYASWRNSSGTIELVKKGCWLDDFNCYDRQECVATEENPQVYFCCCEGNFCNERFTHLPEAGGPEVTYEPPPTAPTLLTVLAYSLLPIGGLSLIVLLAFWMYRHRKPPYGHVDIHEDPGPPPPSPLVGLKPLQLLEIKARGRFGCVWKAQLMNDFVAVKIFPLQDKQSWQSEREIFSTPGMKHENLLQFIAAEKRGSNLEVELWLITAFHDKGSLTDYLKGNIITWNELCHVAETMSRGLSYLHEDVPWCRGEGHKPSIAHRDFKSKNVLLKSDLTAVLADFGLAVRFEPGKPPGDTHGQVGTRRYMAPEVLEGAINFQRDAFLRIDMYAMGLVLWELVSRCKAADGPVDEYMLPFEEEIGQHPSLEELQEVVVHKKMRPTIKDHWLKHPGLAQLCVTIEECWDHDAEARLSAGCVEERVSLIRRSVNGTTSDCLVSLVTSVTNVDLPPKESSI
# Sequence of UniProt P68400 (whole entry, looked up): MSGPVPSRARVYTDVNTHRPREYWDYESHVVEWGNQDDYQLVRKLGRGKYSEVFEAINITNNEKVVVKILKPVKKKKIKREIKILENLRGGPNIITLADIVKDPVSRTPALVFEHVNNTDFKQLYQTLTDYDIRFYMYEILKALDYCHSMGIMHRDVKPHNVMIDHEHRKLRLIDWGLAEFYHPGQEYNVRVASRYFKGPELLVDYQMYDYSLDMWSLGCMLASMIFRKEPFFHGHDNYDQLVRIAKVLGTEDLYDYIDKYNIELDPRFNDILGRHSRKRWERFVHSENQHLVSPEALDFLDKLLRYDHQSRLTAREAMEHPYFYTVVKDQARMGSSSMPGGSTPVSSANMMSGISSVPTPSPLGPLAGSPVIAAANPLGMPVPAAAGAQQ
# Sequence of UniProt Q12851 (whole entry, looked up): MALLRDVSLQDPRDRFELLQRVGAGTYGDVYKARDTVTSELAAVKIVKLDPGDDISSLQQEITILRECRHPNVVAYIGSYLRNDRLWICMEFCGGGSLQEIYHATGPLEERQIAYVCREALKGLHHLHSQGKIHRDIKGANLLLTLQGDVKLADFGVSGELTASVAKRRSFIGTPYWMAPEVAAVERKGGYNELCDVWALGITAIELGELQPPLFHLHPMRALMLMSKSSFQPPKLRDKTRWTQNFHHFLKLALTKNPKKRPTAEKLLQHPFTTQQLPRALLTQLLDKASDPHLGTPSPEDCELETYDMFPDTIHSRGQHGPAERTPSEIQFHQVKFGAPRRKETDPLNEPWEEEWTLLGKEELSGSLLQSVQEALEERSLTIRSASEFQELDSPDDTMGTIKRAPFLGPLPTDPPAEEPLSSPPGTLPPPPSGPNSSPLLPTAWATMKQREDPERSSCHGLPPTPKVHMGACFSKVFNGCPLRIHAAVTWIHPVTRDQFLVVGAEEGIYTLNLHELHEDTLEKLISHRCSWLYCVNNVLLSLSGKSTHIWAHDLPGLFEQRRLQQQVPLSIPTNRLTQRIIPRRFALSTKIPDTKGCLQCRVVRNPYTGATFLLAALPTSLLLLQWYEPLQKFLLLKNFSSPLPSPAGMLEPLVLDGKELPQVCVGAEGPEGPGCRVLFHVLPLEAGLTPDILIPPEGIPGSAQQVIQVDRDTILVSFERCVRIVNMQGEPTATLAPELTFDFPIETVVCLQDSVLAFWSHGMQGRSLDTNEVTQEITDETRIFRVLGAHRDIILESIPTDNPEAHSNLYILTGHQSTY
# Sequence of UniProt P50750 (whole entry, looked up): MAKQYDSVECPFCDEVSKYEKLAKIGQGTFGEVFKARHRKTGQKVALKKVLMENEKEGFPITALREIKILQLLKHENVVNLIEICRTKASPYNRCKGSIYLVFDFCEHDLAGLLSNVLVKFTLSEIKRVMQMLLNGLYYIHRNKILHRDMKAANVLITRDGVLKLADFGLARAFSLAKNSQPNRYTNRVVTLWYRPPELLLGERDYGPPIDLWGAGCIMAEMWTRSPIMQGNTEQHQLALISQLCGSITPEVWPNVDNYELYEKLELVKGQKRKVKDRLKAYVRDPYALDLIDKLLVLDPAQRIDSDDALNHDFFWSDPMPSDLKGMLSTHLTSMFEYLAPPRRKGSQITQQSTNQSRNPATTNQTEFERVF
# Sequence of UniProt P51817 (whole entry, looked up): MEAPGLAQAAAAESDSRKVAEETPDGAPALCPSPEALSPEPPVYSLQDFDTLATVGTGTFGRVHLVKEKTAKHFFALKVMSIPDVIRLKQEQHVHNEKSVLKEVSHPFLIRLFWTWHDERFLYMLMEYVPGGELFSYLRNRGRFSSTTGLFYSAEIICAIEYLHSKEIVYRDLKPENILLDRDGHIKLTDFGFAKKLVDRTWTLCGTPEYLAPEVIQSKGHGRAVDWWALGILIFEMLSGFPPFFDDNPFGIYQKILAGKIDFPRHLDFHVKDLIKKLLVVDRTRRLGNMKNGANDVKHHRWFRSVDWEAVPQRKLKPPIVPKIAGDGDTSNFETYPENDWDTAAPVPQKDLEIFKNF
# Sequence of UniProt Q9HBH9 (whole entry, looked up): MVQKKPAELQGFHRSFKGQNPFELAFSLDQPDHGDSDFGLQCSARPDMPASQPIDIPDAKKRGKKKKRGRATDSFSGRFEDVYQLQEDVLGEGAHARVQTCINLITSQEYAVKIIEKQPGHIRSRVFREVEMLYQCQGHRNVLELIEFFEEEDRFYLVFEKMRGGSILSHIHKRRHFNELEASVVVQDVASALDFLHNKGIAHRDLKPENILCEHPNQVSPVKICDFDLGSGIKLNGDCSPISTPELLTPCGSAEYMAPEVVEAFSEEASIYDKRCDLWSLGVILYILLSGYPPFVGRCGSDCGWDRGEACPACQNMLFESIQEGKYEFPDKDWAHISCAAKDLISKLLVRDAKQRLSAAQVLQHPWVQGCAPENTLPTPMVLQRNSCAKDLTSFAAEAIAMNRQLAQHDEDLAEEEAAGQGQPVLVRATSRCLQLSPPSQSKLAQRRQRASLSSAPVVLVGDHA
# Sequence of UniProt Q59H18 (whole entry, looked up): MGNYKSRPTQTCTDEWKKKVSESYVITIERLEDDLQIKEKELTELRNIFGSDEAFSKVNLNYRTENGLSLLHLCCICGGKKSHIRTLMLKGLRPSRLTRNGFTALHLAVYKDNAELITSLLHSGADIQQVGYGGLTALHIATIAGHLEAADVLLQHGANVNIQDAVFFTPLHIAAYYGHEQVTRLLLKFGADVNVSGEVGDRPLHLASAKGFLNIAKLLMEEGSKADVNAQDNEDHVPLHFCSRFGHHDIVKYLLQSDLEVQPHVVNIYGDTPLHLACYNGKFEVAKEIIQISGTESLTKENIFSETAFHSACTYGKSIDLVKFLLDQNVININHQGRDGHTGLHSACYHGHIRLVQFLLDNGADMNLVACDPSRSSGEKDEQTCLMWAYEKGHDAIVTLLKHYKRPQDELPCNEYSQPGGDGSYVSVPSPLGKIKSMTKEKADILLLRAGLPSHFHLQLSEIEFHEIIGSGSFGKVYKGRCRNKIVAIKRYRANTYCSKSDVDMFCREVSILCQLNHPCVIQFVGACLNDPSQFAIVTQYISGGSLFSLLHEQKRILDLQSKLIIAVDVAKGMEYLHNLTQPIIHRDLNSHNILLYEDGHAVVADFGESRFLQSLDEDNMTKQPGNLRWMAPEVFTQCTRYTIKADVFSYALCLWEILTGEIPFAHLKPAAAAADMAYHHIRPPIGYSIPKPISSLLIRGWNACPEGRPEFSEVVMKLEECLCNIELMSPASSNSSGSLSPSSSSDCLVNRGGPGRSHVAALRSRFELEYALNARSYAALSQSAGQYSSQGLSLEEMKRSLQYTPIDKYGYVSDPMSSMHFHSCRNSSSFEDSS
# Sequence of UniProt Q8N568 (whole entry, looked up): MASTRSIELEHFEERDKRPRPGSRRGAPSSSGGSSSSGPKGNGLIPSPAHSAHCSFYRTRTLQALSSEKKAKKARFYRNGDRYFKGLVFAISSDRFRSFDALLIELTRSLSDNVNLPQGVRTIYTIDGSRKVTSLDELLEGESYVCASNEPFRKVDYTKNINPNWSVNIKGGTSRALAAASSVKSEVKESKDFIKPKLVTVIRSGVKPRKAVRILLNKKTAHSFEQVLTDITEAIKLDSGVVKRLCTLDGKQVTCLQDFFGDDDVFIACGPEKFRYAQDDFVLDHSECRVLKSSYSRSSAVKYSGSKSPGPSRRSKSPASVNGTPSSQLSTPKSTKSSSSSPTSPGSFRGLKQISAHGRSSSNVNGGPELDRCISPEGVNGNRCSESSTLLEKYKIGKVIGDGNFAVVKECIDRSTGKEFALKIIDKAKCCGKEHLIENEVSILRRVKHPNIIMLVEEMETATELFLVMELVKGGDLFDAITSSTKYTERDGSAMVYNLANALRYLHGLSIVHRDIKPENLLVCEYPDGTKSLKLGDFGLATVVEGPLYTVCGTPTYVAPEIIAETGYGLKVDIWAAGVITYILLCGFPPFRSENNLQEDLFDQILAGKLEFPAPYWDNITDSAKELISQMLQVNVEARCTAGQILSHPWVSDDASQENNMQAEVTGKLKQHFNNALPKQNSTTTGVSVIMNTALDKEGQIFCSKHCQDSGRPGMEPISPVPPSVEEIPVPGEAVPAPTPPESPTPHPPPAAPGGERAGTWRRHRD

# Sample 1
# Target: RING finger protein unkempt homolog, zinc fingers 1-6, GST-SBP tag (UNK, Homo sapiens, UniProt Q9C0B0, residues 30-357)
# Sequence of UniProt Q9C0B0 (30-357, looked up): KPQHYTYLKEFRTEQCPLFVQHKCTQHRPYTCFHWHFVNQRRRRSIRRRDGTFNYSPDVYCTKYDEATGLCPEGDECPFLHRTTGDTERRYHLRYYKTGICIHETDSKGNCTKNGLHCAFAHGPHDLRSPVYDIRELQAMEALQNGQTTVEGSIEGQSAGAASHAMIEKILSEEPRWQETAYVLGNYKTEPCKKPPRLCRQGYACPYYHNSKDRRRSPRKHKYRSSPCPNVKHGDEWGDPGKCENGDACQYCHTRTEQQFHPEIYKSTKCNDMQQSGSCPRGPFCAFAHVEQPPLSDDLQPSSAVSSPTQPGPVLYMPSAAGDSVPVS
# Method: RNA Bind-n-Seq
# Molecule type: RNA
# Matrix: in vitro
# Concentration: not given
# Notes: RNA with constant flanks, human and mouse sites, ends assumed
# Relative to: input RNA pool
# Reading: higher = stronger binding
# Shared flanks, not repeated: GGGAGUUCUACAGUCCGACGAUC … CAACAGAGGAUUGAGCAUCA
Oligonucleotide,bound/input enrichment [ratio]
AGUCAUGAGCCAGAGUUUGACUAUUUGAAAAGUCUAGAAAUUGAAGAAAAAAUUAAUAAAAUCAGGUGGUUACCGCAACAGAAUGCUGCUCAUUUUCUACUCUCUACAAAUGAUAAAACU,1.2
CCCAUGAUUUCUUCAGAAAUGAUUUUCUAGAAGUUGUGAACUUCUUGAAAAGCUUGACAUUAAAGAGUGAAGAUGAAAAGACUGAAUUUUUCAAAUUUCUGCUGGACCGAGUGAGCUGCC,0.215
AUUCUUGAUCAAUGUGACAGGUAACUGCCCAGCUCUGUGUAUAAGGCAAACAUAGACUCUUGUUUUCCUCUUUCCUAUUCAUAUCAUUCAGUGAUGUUGUUAUUAAAACAGUAUUUCAUC,0.168
UCUGGUUCACUUCUAUUAUGAAUAAAUUUGCACCAAUAGCCCCAUUAGUUUUUAAAGAAAUGAGCUGGGUGGGAAAAGUGGAAAUGUAAUUUCUGGUAAGCUUGAGCUACUUUAAUUUUU,2.18
GCAGAGCUUGAUACACUGAACGAAGACUCCUACAAAGACAGCACCCUCAUCAUGCAGUUGCUUAGAGACAACUUAACAUUAUGGACAUCAGACAGUGCAGGAGAAGAAUGUGAUGCAGCA,0.348
UUAGAUUUCAUUGGUAAUAAUGAGUCUCCACGUAAAAAAUUCCCCCCAAUGACAUCUUACCAUAGGAUGCUAUUACACAGAGUAGCCGCUUACUUUGGAUUAGACCACAAUGUUGAUCAG,1.29
AACACUAAUGAGAGAUCAUGAUGCAGCCGUCCUUUUGGAUUUCUUUUUAAUAAUGUGUGACCCUUCACCUUUGAUCCCCUGACCUGCAUUACCUUGGUAACCAUUUCAUUUUUUAAUUUA,1.03
AGUCUGGCCGUACCACUGUGGCUGCUGGCAGCAUCUCUGCUCUGCCUUCUCAGCAAAUGUUAAUAGAAUAAAAAUUUAAAAAUAAUUUAAAAAACACACAAAAAUGCGUCACACAGAAUA,6.03

# Sample 2
# Compound: CN1CCN(c2cnc3c(C4CCN(C(=O)c5ccc(OC(F)(F)F)cc5N)CC4)ncnc3c2)CC1
# Method: competition with immobilised ligand
# Concentration: 1 µM
target,test,remaining binding [%]
"Receptor-type tyrosine-protein kinase FLT3 (FLT3, Homo sapiens, UniProt P36888, ITD)",cell-free assay,88
"Dual specificity mitogen-activated protein kinase kinase 6 (MAP2K6, Homo sapiens, UniProt P52564)",cell-free assay,88
"Cyclin-dependent kinase 2 (CDK2, Homo sapiens, UniProt P24941)",cell-free assay,100
"Epidermal growth factor receptor (EGFR, Homo sapiens, UniProt P00533, L858R/T790M)",cell-free assay,95
"Serine/threonine-protein kinase DCLK2 (DCLK2, Homo sapiens, UniProt Q8N568)",cell-free assay,100
"Activin receptor type-2B (ACVR2B, Homo sapiens, UniProt Q13705)",binding,100
"Receptor-type tyrosine-protein kinase FLT3 (FLT3, Homo sapiens, UniProt P36888)",cell-free assay,97
"Serine/threonine-protein kinase TNNI3K (TNNI3K, Homo sapiens, UniProt Q59H18)",cell-free assay,100
"Aurora kinase A (AURKA, Homo sapiens, UniProt O14965)",cell-free assay,100
"Inhibitor of nuclear factor kappa-B kinase subunit epsilon (IKBKE, Homo sapiens, UniProt Q14164)",cell-free assay,98
"cAMP-dependent protein kinase catalytic subunit PRKX (PRKX, Homo sapiens, UniProt P51817)",cell-free assay,100
"Receptor-type tyrosine-protein kinase FLT3 (FLT3, Homo sapiens, UniProt P36888, D835V)",cell-free assay,90
"Epidermal growth factor receptor (EGFR, Homo sapiens, UniProt P00533, A750P/del747-749)",cell-free assay,83

# Sample 3
# Target: Sal-like protein 4, full length isoform B (SALL4, Homo sapiens, UniProt Q9UJQ4-2, residues 1-616)
# Method: universal PBM
# Molecule type: double-stranded DNA, one strand shown
# Matrix: in vitro
# Concentration: not given
# Notes: 8-mer, flanks averaged, mean of replicates
# Reading: higher = stronger binding
# Target sequence (chain): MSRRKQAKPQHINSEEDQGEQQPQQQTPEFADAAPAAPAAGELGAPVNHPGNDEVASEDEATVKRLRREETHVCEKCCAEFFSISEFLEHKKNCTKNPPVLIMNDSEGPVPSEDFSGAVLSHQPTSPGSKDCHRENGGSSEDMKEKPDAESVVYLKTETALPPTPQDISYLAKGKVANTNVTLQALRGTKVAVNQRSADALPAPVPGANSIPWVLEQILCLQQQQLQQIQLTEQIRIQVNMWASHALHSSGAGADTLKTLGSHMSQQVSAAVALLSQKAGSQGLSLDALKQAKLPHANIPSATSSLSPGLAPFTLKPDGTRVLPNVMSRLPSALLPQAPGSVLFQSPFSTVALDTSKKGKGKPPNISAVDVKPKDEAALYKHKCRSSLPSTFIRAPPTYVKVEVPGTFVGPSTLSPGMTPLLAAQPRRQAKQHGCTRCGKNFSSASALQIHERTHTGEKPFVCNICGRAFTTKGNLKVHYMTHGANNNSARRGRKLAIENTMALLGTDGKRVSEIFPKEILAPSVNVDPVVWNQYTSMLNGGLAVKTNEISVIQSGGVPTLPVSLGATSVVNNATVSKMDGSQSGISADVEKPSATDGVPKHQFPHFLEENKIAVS
Oligonucleotide,E-score
GCCACGGA,-0.219
CTATAAGA,0.159
AATCAACA,0.216
CGATGCCA,-0.195
CCAGCCGA,-0.312
ATGCAACA,0.146
CCCGTCGC,-0.307
CCGACGCG,-0.37

# Sample 4
# Compound: NC(=O)c1ccc(-c2nc(-c3ccc4c(c3)OCCO4)c(-c3ccccn3)[nH]2)cc1
# Effect on: enzyme activity
# Mode: inhibitor
# Concentration: 0.5 µM
# Relative to: control
target,remaining activity [%]
"Casein kinase II subunit alpha (CSNK2A1, Homo sapiens, UniProt P68400)",122
"Serine/threonine-protein kinase PLK2 (PLK2, Homo sapiens, UniProt Q9NYY3)",96.6
"Tyrosine-protein kinase Lyn (LYN, Homo sapiens, UniProt P07948)",99.9
"Protein kinase C iota type (PRKCI, Homo sapiens, UniProt P41743)",102
"Cyclin-dependent kinase 9, with cyclin T1 (CDK9, Homo sapiens, UniProt P50750)",96.8
"Mitogen-activated protein kinase kinase kinase kinase 2 (MAP4K2, Homo sapiens, UniProt Q12851)",92.6
"Serine/threonine-protein kinase WNK2 (WNK2, Homo sapiens, UniProt Q9Y3S1)",93.5
"Ephrin type-A receptor 5 (EPHA5, Homo sapiens, UniProt P54756)",89.7
"Interleukin-1 receptor-associated kinase 4 (IRAK4, Homo sapiens, UniProt Q9NWZ3)",100
"MAP kinase-interacting serine/threonine-protein kinase 2 (MKNK2, Homo sapiens, UniProt Q9HBH9)",92.3
"Mast/stem cell growth factor receptor Kit (KIT, Homo sapiens, UniProt P10721)",119

# Repeated from above (sample 2):
target,test,remaining binding [%]
"Aurora kinase A (AURKA, Homo sapiens, UniProt O14965)",cell-free assay,100
"Dual specificity mitogen-activated protein kinase kinase 6 (MAP2K6, Homo sapiens, UniProt P52564)",cell-free assay,88
"Cyclin-dependent kinase 2 (CDK2, Homo sapiens, UniProt P24941)",cell-free assay,100
"Epidermal growth factor receptor (EGFR, Homo sapiens, UniProt P00533, A750P/del747-749)",cell-free assay,83
"Inhibitor of nuclear factor kappa-B kinase subunit epsilon (IKBKE, Homo sapiens, UniProt Q14164)",cell-free assay,98
